Values quoted from earlier work, collected from citations in different studies.
Compare with care: the assays were run in different laboratories. Numbers after ± are the reported error.
OPRD1: Delta-type opioid receptor (OPRD1, Homo sapiens, UniProt P41143)
UniProt P41143, sequence (whole entry, looked up): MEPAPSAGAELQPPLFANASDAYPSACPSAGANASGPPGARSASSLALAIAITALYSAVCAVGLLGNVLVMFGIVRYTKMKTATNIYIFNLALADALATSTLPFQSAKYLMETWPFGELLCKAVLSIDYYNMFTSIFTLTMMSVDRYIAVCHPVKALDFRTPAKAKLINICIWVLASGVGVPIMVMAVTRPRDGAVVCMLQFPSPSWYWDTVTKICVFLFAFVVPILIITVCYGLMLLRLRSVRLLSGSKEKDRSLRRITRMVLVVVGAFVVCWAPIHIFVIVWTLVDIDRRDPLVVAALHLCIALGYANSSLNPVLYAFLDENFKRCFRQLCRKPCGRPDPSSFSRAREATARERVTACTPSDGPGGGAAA
UniProt Q9UGM1, sequence (whole entry, looked up): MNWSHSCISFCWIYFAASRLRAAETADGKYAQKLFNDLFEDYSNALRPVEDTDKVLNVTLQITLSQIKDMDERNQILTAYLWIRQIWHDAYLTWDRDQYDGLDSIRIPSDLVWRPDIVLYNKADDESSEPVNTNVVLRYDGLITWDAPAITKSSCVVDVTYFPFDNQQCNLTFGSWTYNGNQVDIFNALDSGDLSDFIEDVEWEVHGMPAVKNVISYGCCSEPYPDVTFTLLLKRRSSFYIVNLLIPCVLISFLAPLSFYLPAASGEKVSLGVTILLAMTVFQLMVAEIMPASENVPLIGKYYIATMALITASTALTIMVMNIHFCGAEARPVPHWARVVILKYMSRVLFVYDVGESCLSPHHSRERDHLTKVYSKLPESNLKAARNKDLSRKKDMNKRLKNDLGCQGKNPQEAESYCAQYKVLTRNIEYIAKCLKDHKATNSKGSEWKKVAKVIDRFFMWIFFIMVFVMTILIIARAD
UniProt Q91XE4, sequence (whole entry, looked up): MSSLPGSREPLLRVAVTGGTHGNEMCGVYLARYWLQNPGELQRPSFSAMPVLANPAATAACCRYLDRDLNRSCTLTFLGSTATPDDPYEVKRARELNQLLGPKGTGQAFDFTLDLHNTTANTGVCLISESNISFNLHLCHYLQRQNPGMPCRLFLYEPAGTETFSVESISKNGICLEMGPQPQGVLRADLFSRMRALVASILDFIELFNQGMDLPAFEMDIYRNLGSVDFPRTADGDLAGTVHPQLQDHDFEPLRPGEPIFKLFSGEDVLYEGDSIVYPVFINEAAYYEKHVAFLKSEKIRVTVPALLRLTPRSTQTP
UniProt Q9GZZ6, sequence (whole entry, looked up): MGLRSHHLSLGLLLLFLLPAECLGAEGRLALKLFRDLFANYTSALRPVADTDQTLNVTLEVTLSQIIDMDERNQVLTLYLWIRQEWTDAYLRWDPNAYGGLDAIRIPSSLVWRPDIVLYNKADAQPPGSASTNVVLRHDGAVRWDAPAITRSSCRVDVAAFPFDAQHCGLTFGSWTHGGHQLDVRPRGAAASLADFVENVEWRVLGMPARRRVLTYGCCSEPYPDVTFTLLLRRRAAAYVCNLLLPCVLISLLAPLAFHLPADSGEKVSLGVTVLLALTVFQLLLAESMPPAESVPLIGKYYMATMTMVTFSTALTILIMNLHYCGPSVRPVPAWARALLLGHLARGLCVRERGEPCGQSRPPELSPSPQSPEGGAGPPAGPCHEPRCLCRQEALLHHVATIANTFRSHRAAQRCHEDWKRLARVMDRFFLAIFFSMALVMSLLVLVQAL

Compound | target or system | assay | system | conditions | scale | quantity | result
Nc1cc(C(F)(F)F)c(-c2nc(N3CCOCC3)nc(N3CCOCC3)n2)cn1 | Serine/threonine-protein kinase PknB (pknB, Mycobacterium tuberculosis, UniProt P9WI81) | enzyme activity | – | 10 µM | relative to: untreated | remaining activity | 100%
O=C1C=CC(=O)c2ccccc21 | Reaction center protein M chain, QA site (pufM, Cereibacter sphaeroides, UniProt P0C0Y9) | P+HA− charge separation, delayed fluorescence | – | – | – | free energy change | -540 meV
C[C@]12CCC(=O)C=C1CC[C@@H]1[C@@H]2CC[C@]2(C)C(=O)CC[C@@H]12 | aromatase human placental | substrate | – | – | – | Km | 0.014 µM
CN1CCc2[nH]c3ccccc3c2CC1.O=C(O)/C=C/C(=O)O | Neuronal acetylcholine receptor; alpha9/alpha10 (Homo sapiens, UniProt Q9GZZ6+Q9UGM1) | inhibitor | – | added: 6 µM acetylcholine | – | Hill coefficient | 1.9 ± 0.2
COc1cc2c3cc1Oc1cc(ccc1O)C[C@@H]1c4c(cc(OC)c(O)c4Oc4ccc(cc4)C[C@@H]3N(C)CC2)CC[N+]1(C)C | – | ACh iontophoretic pulse response | end-plate | concentration not given | relative to: control | end-plate response | 25%
Nc1ncnc2c1ncn2[C@@H]1O[C@H](COP(=O)(O)OP(=O)(O)OP(=O)(O)O)[C@@H](O)[C@H]1O | dnaK (Escherichia coli, UniProt P0A6Y8, E213C/T22C) | tryptophan fluorescence decrease | – | 25 °C | – | maximum rate | ≤ 1.5 s⁻¹
CC(=O)N[C@@H](CSC(Cl)=CCl)C(=O)O | N-acyl-aromatic-L-amino acid amidohydrolase (carboxylate-forming) (Acy3, Mus musculus, UniProt Q91XE4) | substrate | – | added: Co2+ 0.1 mM | – | Km | 300 µM
Oc1ccc2c3c1O[C@H]1c4[nH]c5ccccc5c4C[C@@]4(O)[C@@H](C2)N(CC2CC2)CC[C@]314 | OPRD1 | binding | – | – | – | Hill coefficient | 1
Oc1cc(Br)cc(Br)c1Oc1ccc(Br)cc1Br | H295R | – | – | concentration not given | – | aromatase reduction | 98.2%
Oc1ccc2c3c1O[C@H]1c4[nH]c5ccccc5c4C[C@@]4(O)[C@@H](C2)N(CC2CC2)CC[C@]314 | OPRD1 | – | – | – | – | Hill coefficient | 1

For quick reference, copied from above:
Compound | target or system | assay | system | conditions | scale | quantity | result
CC(=O)N[C@@H](CSC(Cl)=CCl)C(=O)O | N-acyl-aromatic-L-amino acid amidohydrolase (carboxylate-forming) (Acy3, Mus musculus, UniProt Q91XE4) | substrate | – | added: Co2+ 0.1 mM | – | Km | 300 µM
